Published values gathered from unrelated publications.
Compare with care: the assays were run in different laboratories.

SMILES	test	test system	setting	quantity	result
C=CC(=O)Nc1cc(Nc2nccc(Nc3cc(Cl)c(F)cc3C(C)(C)O)n2)c(OC)cc1N1CC[C@@H](N(C)C)C1		human patients	oral, 300 mg, treatment-emergent adverse events	patients with mouth ulceration	21.6%
Cn1cncc1-c1c(F)cncc1NC(=O)c1c(N)nn2cc(F)cnc12		human patients	oral, up to 40 mg once daily	patients grade ≥3 Anemia	0%
O=C1Nc2cc3[nH]nc(-c4ccncc4)c3cc2CN1Cc1ccccc1	CTCAE v4.03	human, relapsed or refractory advanced solid tumours	intravenous, 3.6 mg/kg, pooled schedules	patients with vomiting	33%
Cc1cn([C@H]2O[C@@H](CO[P@@](=O)(N[C@@H](C)C(=O)OC(C)C)Oc3ccccc3)[C@H](O)[C@H]2F)c(=O)[nH]c1=O	item: grade 3	human	50 mg	patients with ALT/AST elevation	0%
C[C@@H]1OC(=O)NN=C1c1ccc(-c2ccc(F)cc2)c(C(F)(F)F)c1	phase I trial, item: Dyspnoea all grades	human patients	10 mg loading then 0.5 mg daily	patients with adverse event	0%
CCS(=O)(=O)Nc1ccc(Oc2ccc(F)cc2F)c(-c2cn(C)c(=O)c3[nH]ccc23)c1	item: Acidosis	human, relapsed/refractory AML	oral, dose not given, trial, added: alone or with venetoclax	patients with serious adverse event	5%
O=C(c1ccc(F)c(F)c1Nc1ccc(I)cc1F)N1CC(O)([C@@H]2CCCCN2)C1		human patients	oral, 1 mg/kg, dose expansion cohort	patients with SAE leading to withdrawal	8%
Cn1ncc(-c2nc(N[C@H]3CC[C@H](N)CC3)ncc2Cl)c1CC1CC1	item: treatment-related Thrombocytopenia grade 3 or higher	human patients phase I	dose not given	patients with adverse events	3.2%
C[C@]1(O)C[C@@](N)(c2ccc(-c3nc4n(c3-c3ccccc3)COc3ccncc3-4)cc2)C1		human, advanced or metastatic solid tumours	intermittent, dose escalation total	patients with grade ≥3 Hyperglycemia TEAE	14.3%
COc1ccc(-c2c(-c3ccc(C#N)c(F)c3)nc(N3CCC(N)CC3)n(C)c2=O)cc1F	item: general health deterioration	human patients	oral, 60 mg, dose expansion	patients with serious TEAE	5%
COc1ncnn2ccc(-c3cnc4nc(C)n(Cc5nnc([C@@H](C)F)o5)c4c3)c12		human	oral, dose not given, grade 3	patients with amylase increased	7.1%
CCN(CCO)CCCC(C)Nc1ccnc2cc(Cl)ccc12 (stereo not shown)		human, newly diagnosed glioblastoma	oral, 400 mg/dose, platelet decrease grade 4, with RT and TMZ	patients with adverse event	14%
CCN1[C@@H](C(=O)NC23CCC(C(=O)O)(CC2)CC3)[C@H](c2cccc(Cl)c2F)[C@]2(C(=O)Nc3cc(Cl)ccc32)C12CCCCC2	item: any-grade treatment-related vomiting	human, advanced solid tumours	oral, dose not given, all sample A patients	patients with adverse event	42.9%

Excerpt of the above:
SMILES	test	test system	setting	quantity	result
CCN(CCO)CCCC(C)Nc1ccnc2cc(Cl)ccc12 (stereo not shown)		human, newly diagnosed glioblastoma	oral, 400 mg/dose, platelet decrease grade 4, with RT and TMZ	patients with adverse event	14%
